Measured values from different studies.
Protocols differ between the studies behind these lines. Several values in a cell are separate wells, animals, samples, runs or records.
JAK2: Tyrosine-protein kinase JAK2 (JAK2, Homo sapiens, UniProt O60674)
JAK2 JH1: Tyrosine-protein kinase JAK2, JH1 (JAK2, Homo sapiens, UniProt O60674)

Structure (SMILES) | target | test | conditions | how to read | measurement | result
CC(=O)N1c2ccc(-c3ccc(CNC(=O)c4cn5cc(-c6cnc(N)nc6)nc(N6CCOCC6)c5n4)cc3)cc2CC[C@@H]1C | JAK2 | KINOMEscan | 10 µM | – | remaining binding | 48%
COc1c(OCCCN2CCOCC2)ccc2c1N=C(NC(=O)c1cnc(N)nc1)N1CCN=C21 | JAK2 | kinase activity, inhibitor | 1 µM | relative to: untreated control | remaining activity | 116%
COc1c(Cl)cccc1Nc1c(-c2ccncc2C#C[C@@]2(C)CCCN2C(=O)/C=C/CN(C)C)[nH]c2c1C(=O)NCC2 | JAK2 JH1 | cell-free assay, competition with immobilised ligand | 3 µM | – | remaining binding | 97%
CNC(=O)C1CCN(c2cc(C)c(F)cc2NC(=O)c2ccc(-c3cc(O)ccc3C)c(C)c2)CC1 | JAK2 JH1 | binding, competition with immobilised ligand | 1 µM | – | remaining binding | 89%
Cc1cnc2nc1Nc1cccc(c1)COCCCCOCc1cc(ccc1OCCN1CCCC1)N2 | JAK2 | inhibitor, Z'-LYTE kinase | 13.72 nM | – | inhibition | 9.73% and 7.9% and 11.4%
Cc1cnc(Nc2ccc3c(c2)CCN(C(=O)/C=C/C(=O)C(C)C)C3)nc1-c1cnn(C(C)C)c1 | JAK2 | ADP-Glo kinase | – | relative to: IC50 JAK3 over IC50 JAK2 | selectivity ratio | > 2.53
COc1ccc(NC(=O)Nc2ccc3c(c2)C(=O)N(C(C)CO)CC(C)C(CN(C)Cc2ccc4c(c2)OCO4)O3)cc1 (stereo not shown) | JAK2 JH1 | binding, competition with immobilised ligand | 10 µM | – | remaining binding | 98%
COc1cc(Nc2nccc(-c3cnn4nc(OC)ccc34)n2)cc(C(F)(F)F)c1 | JAK2 JH1 | binding, competition with immobilised ligand | 1 µM | – | remaining binding | 87%
Cc1cnc2nc1Nc1cc(F)cc(c1)COC/C=C/COCc1cc(ccc1OCCN1CCCC1)N2 | JAK2 | inhibitor, Z'-LYTE kinase | 12.35 nM | – | inhibition | 71.2% and 70% and 72.6%
Cc1cnc(Nc2ccc3c(c2)CCN(C(=O)/C=C/CC(C)C)C3)nc1-c1cnn(C(C)C)c1 | JAK2 | ADP-Glo kinase | – | relative to: IC50 JAK3 over IC50 JAK2 | selectivity ratio | > 2.16
CNC1C[S+]2CC[S+]3CC[S+](C1)[Ru-4]321([N]=C=S)[n]2c3ccc(OC)cc3c3c4c(c5cc(F)c[n+]1c5c32)C(=O)NC4=O (stereo not shown) | JAK2 | KinomeScan | 0.1 µM | relative to: untreated | remaining binding | 88%
Cc1cnc(Nc2ccc3c(c2)CCN(C(=O)/C=C/C(=O)C2CCCC2)C3)nc1-c1cnn(C(C)C)c1 | JAK2 | ADP-Glo kinase | – | relative to: IC50 JAK3 over IC50 JAK2 | selectivity ratio | > 4.47
COCC12C(=O)NC3C4(C(OC)CC1O)C1CC5(O)C(OC)C(O)C(OC(C)=O)(C1C5OC(=O)c1ccccc1)C3(O)C(OC)C24 (stereo not shown) | JAK2 | kinase activity, inhibitor, ProQinase kinase profiling | 25 µM | relative to: control | remaining activity | 101% and 99%
Cc1cnc(Nc2ccc3c(c2)CCN(C(=O)/C=C/C(=O)C2CCC(C)CC2)C3)nc1-c1cnn(C(C)C)c1 (stereo not shown) | JAK2 | ADP-Glo kinase | – | relative to: IC50 JAK3 over IC50 JAK2 | selectivity ratio | > 14.6
CN1CCN(Cc2ccc(NC(=O)c3cccc(C#Cc4cnc(N)c5ncccc45)c3)cc2C(F)(F)F)CC1 | JAK2 JH1 | cell-free assay, competition with immobilised ligand | 0.5 µM | – | remaining binding | 3.6%
Cc1c[nH]c2nccc(-c3ccc(C(=O)N[C@@H]4c5c(F)cc(C(F)F)cc5C[C@@H]4O)cn3)c12 | JAK2 JH1 | binding, competition with immobilised ligand | 3 µM | – | remaining binding | 0.7%
Cc1cnc2nc1Nc1cccc(c1)COCc1cc(ccc1OCCN1CCOCC1)N2 | JAK2 | inhibitor, Z'-LYTE kinase | 1.372 nM | – | inhibition | 8.7% and 5.25% and 4.17%
c1ccc2c(Nc3cc(C4CCC4)[nH]n3)nc(Nc3ccc4nc[nH]c4c3)nc2c1 | JAK2 | enzyme activity, inhibitor | 0.25 µM | – | remaining activity | 2%
CCC(CC)C(=O)/C=C/C(=O)N1CCc2cc(Nc3ncc(C)c(-c4cnn(C(C)C)c4)n3)ccc2C1 | JAK2 | ADP-Glo kinase | – | relative to: IC50 JAK1 over IC50 JAK2 | selectivity ratio | 0.53
Cc1ccc(-c2n[nH]cc2CNC(=O)C2(C#N)CC2)cc1 | JAK2 | cell-free assay, competition with immobilised ligand | 10 µM | – | remaining binding | 1.4%
Cc1cnc(Nc2ccc3c(c2)CCN(C(=O)/C=C/C(=O)c2ccc(Cl)cc2)C3)nc1-c1cnn(C(C)C)c1 | JAK2 | ADP-Glo | – | relative to: IC50 JAK1 over IC50 JAK2 | selectivity ratio | > 73.2
Cc1cnc2nc1Nc1cccc(c1)COC/C=C/COCc1cc(ccc1OCCN1CCOCC1)N2 | JAK2 | inhibitor, Z'-LYTE kinase | 250 nM | – | inhibition | 100% and 102%

Repeated from above:
Structure (SMILES) | target | test | conditions | how to read | measurement | result
Cc1cnc2nc1Nc1cccc(c1)COCc1cc(ccc1OCCN1CCOCC1)N2 | JAK2 | inhibitor, Z'-LYTE kinase | 1.372 nM | – | inhibition | 8.7% and 5.25% and 4.17%
